Results of several laboratories.
Compare with care: the assays were run in different laboratories. Numbers after ± are the reported error.

`CC(C)(C)[C@H](NS(=O)(=O)C(F)(F)F)C(=O)N1C[C@H]2[C@@H]([C@H]1C(=O)N[C@H](C#N)C[C@@H]1CCNC1=O)C2(C)C` — result for cytotoxicity: “not toxic” (Vero E6 cells; concentration not given).
For `O=C(Nc1nc2ccccc2[nH]1)C1CCC1`, “highest non-cytotoxic concentration” read 60 µM (BV-2; 24 h).
`NC(=O)c1ncn([C@@H]2O[C@H](CO)[C@@H](O)[C@H]2O)n1` gave a CC50 of over 640 µM (MARC145; cell growth or viability, MTT; 48 h).
`Cc1nc(C(NC(=O)c2ccc(-c3ccc(Cl)cc3)[nH]2)C2CCCCN2)sc1CO` (mixture of isomers) gave a CC50 of about 30 µM (U87/CD4/CCR5; cell growth or viability, XTT; 72 h).
For `COC(=O)c1[nH]cc2c1[C@@]1(CN(C)c3ccccc31)c1[nH]c3ccc(Cl)cc3c1-2` (racemic), the CC50 was over 50 µM (HepG2; cytotoxicity).
Under “highest non-cytotoxic concentration”, `O=C(Nc1nc2ccccc2[nH]1)c1ccc([N+](=O)[O-])cc1` is recorded as 300 µM (BV-2; 24 h).
Under “minimum cytotoxic concentration”, `C[C@H](NC(=O)[C@]1(Cc2ccccc2)CCN1C(=O)OCc1ccccc1)C(=O)N(C)C` is recorded as over 100 µM (HEL; microscopic cell morphology).
With `O=c1c(-c2ccc(O)cc2)coc2c([C@@H]3O[C@H](CO)[C@@H](O)[C@H](O)[C@H]3O)c(O)ccc12` the efflux ratio was about 1 (rat nasal epithelial cells; Transwell bidirectional transport; 25, 50, 100 µg/mL, 180 min).
The viability of `Cc1cc(C)cc(C(=O)NC(=S)Nc2cc(Cl)c(O)c(Cl)c2)c1` is reported as 59% (BHK-21; cell growth or viability, MTT; 100 µM, serum-free).
`VQWRAIRVRVIR` — result for “minimum haemolytic concentration”: over 2000 µg/mL (human red blood cells; haemolysis; peptide; 4 h, pH 7.4, 25 °C).
For `C[C@H](NC(=O)[C@]1(Cc2ccccc2)CCN1C(=O)OCc1ccccc1Cl)C(N)=O`, “minimum cytotoxic concentration” read over 100 µM (HEL; microscopic cell morphology).
The TD50 of `CCCCCCCCCCCCCNCC(=O)N(CC(=O)N(CCCCN)CC(=O)N(CCN)CC(=O)N(CC(N)=O)CC1CCCCC1)CC1CCCCC1` is reported as 62 ± 3 µg/mL (HepG2; cytotoxicity, MTT; 72 h).
`CCCCOc1c2cc(C(=O)Nc3cc(C(=O)O)cc(C(=O)O)c3)cc1Cc1cc(C(=O)Nc3cc(C(=O)O)cc(C(=O)O)c3)cc(c1OCCCC)Cc1cc(C(=O)Nc3cc(C(=O)O)cc(C(=O)O)c3)cc(c1OCCCC)Cc1cc(C(=O)Nc3cc(C(=O)O)cc(C(=O)O)c3)cc(c1OCCCC)C2` has an IC50 of over 50 µM (MT2; cell growth or viability).
With `CC/C(=C(\c1ccccc1)c1ccc(OCCN(C)C)cc1)c1ccccc1` the EC50 was over 316 µM (SK-BR-3; necrosis; 24 h).
`CCCCCCCCN(CCCCCCCC)CC(=O)N(CC(=O)N(CCCCN)CC(=O)N(CCN)CC(=O)N(CC(N)=O)C1CCCCC1)C1CCCCC1` has a TD50 of 162 ± 29 µg/mL (HepG2; cytotoxicity, MTT; 72 h).
The chloride permeability of `O=S(=O)(O)c1cc(N=C=S)ccc1C=Cc1ccc(N=C=S)cc1S(=O)(=O)O` is reported as 0.00045 mmol/kg Hb/min/mM (human red blood cells; 10 µM, 0 °C, together with: 20 µM valinomycin).
Under “minimum cytotoxic concentration”, `CC(C)C[C@H](NC(=O)[C@@]1(Cc2ccccc2)CCN1C(=O)OCc1ccccc1)C(N)=O` is recorded as over 100 µM (HEL; microscopic cell morphology).
`Cc1c(O)cc(C[C@]23C[C@H](C[C@H](C)O2)c2c4c(c(O)c(C)c2O3)CO[C@@]2(C4)C[C@@H](O)C[C@H](C)O2)c(C=O)c1O` gave an IC50 of 14.3 µM (NCI-H1975; cell growth or viability).
Under “minimum cytotoxic concentration”, `OC[C@H]1O[C@@H](n2cnc3c(O)nc(-n4cc(-c5ccccc5)nn4)nc32)[C@H](O)[C@@H]1O` is recorded as 240 µM (HEL; cell morphology).
With `COc1ccc(C(=O)NC(=S)Nc2ccc(C(=O)O)cc2)cc1OC` the viability was 59% (BHK-21; cell growth or viability, MTT; 100 µM, serum-free).
Under “minimum cytotoxic concentration”, `OC[C@H]1O[C@@H](n2cnc3c(NCc4ccccc4)nc(-n4cc(-c5ccccc5)nn4)nc32)[C@H](O)[C@@H]1O` is recorded as 200 µM (HEL; cell morphology).
The viability of `COc1ccc(C(=O)NC(=S)Nc2c(Cl)cc([N+](=O)[O-])cc2Br)cc1OC` is reported as 85% (BHK-21; cell growth or viability, MTT; 100 µM, serum-free).
`C=C(C[C@H](N)C(=O)O)C(=O)Nc1ccccc1` gave an EC50 of 0.195 µM (SK-BR-3; necrosis; 24 h).
The IC50 of `CC1=C(CO)C(=O)O[C@@H]([C@@H](C)[C@H]2CC[C@H]3[C@@H]4C[C@H]5O[C@]56[C@@H](O)C=CC(=O)[C@]6(CO)[C@H]4CC[C@]23C)C1` is reported as 12.1 ± 0.42 µM (MRC-5; cytotoxicity, MTS).
With `C=C(C[C@H](N)C(=O)O)C(=O)NCc1ccccc1` the EC50 was 0.0977 µM (SK-BR-3; necrosis; 24 h).
For `C[C@H](NC(=O)[C@]1(Cc2ccccc2)CCN1S(=O)(=O)c1ccc2ccccc2c1)C(N)=O`, “minimum cytotoxic concentration” read over 100 µM (HEL; microscopic cell morphology).
`CCCCCCCCCCCCCNCC(=O)N(CC(=O)N(CCCCN)CC(=O)N(CCN)CC(=O)N(CC(N)=O)Cc1ccc(F)cc1)Cc1ccc(F)cc1` gave a TD50 of 150 ± 7 µg/mL (HepG2; cytotoxicity, MTT; 72 h).
For `C[C@H](NC(=O)[C@]1(Cc2ccccc2)CCN1C(=O)OCc1ccccc1)C(N)=O`, “minimum cytotoxic concentration” read over 50 µM (HEL; microscopic cell morphology).
`O=C(Nc1nc2ccccc2[nH]1)c1ccc(Cl)c(Cl)c1`: “highest non-cytotoxic concentration” 100 µM (BV-2; 24 h).
The TD50 of `CCCCCCCCCCCCCNCC(=O)N(CC(=O)N(CCCCN)CC(=O)N(CCN)CC(=O)N(CC(N)=O)C(C)C)C(C)C` is reported as over 200 µg/mL (HepG2; cytotoxicity, MTT; 72 h).
`C[C@@]1(O)[C@H](O)[C@@H](CO)O[C@H]1n1ccc(N)nc1=O` has a CC50 of over 316 µM (J2 human intestinal enteroids; cell viability, CellTiter-Glo; 24 h).
`Cc1cc(C)cc(C(=O)NC(=S)Nc2ccccc2O)c1` gave a viability of 56% (BHK-21; cell growth or viability, MTT; 100 µM, serum-free).
`COc1ccc2[nH]cc(CCNC(C)=O)c2c1` has an efflux ratio of 0.99 ± 0.07 (parental MDCK-II cells; 10 µM, 4 h).
For `Nc1ccn(C[C@@H](CO)OCP(=O)(O)O)c(=O)n1`, “minimum cytotoxic concentration” read over 300 µM (HEL; cell morphology).
`OC[C@H]1O[C@@H](n2cnc3c(O)nc(-n4cc(-[c-]5cccc5)nn4)nc32)C[C@@H]1O.[Fe+2].c1cc[cH-]c1`: “minimum cytotoxic concentration” over 200 µM (HEL; cell morphology).
`CC(C)[C@H](NC(=O)[C@]1(Cc2ccccc2)CCN1C(=O)OCc1ccccc1)C(N)=O` — result for “minimum cytotoxic concentration”: over 100 µM (HEL; microscopic cell morphology).
`C=C(C[C@H](N)C(=O)O)C(=O)NC1CC1` has an EC50 of 275 µM (SK-BR-3; necrosis; 24 h).
The TD50 of `CCCCCCCCCCCCCNCC(=O)N(CCCCN)CC(=O)N(CC(=O)N(CC(=O)N(CCN)CC(N)=O)C1CCCCC1)C1CCCCC1` is reported as 105 ± 3.8 µg/mL (HepG2; cytotoxicity, MTT; 72 h).
The Papp(B-A) of `NC(=O)N1c2ccccc2C=Cc2ccccc21` is reported as 20.8 ± 2.3 ×10⁻⁶ cm/s (parental MDCK II cells; bidirectional permeability; 1 µM, 2 h, together with: cyclosporin A 10 µM).
`C[C@H](NC(=O)[C@]1(Cc2ccccc2)CCN1C(=O)Oc1ccccc1)C(N)=O`: “minimum cytotoxic concentration” over 100 µM (HEL; microscopic cell morphology).
`CC(=O)Oc1ccccc1C(=O)Nc1ncc([N+](=O)[O-])s1` has a CC50 of 69.7 µM (J2 human intestinal enteroids; cell viability, CellTiter-Glo; 24 h).
With `C=C(C[C@H](N)C(=O)O)C(=O)NCc1ccc(F)cc1` the EC50 was over 316 µM (SK-BR-3; necrosis; 24 h).
For `CONC(=N)c1ccc(-c2ccc(-c3ccc(C(=N)NOC)cn3)o2)cc1`, the viability was 44% (KLE; 50 µM, 72 h, 10% FBS, together with: α-naphthoflavone (CYP1B1 inhibitor) 10 µM; relative to: vehicle).
For `COc1ccc(C(=O)Nc2cc(Cl)c(O)c(Cl)c2)cc1OC`, the viability was 35% (BHK-21; cell growth or viability, MTT; 100 µM, serum-free).
With `CCCCCCCCCCCCCNCC(=O)N(CC(=O)N(CCCCN)CC(=O)N(CCN)CC(=O)N(CC(N)=O)C1CCCC1)C1CCCC1` the TD50 was over 200 µg/mL (HepG2; cytotoxicity, MTT; 72 h).
With `Nc1nc(O)c2ncn(COC(CO)CO)c2n1` the CC50 was over 150 µM (HFF primary foreskin fibroblasts; cell viability, CellTiter-Glo).
`COc1cc(/C=C2\CC/C(=C\c3ccc(O)c(OC)c3)C2=O)ccc1O` gave a CC50 of 87.4 µM (BHK-21; cell growth or viability, CCK-8; 24 h).
With `CCCCCCCCCCCCCNCC(=O)N(CCCCCC)CC(=O)N(CCCCN)CC(=O)N(CCN)CC(=O)N(CCCCCC)CC(N)=O` the TD50 was 61 ± 9 µg/mL (HepG2; cytotoxicity, MTT; 72 h).
`Cc1cc(C)cc(C(=O)Nc2cc(Cl)c(S(N)(=O)=O)cc2S(N)(=O)=O)c1` gave a viability of 48% (BHK-21; cell growth or viability, MTT; 100 µM, serum-free).
For `C[C@H](NC(=O)[C@@]1(Cc2ccccc2)CCN1C(=O)OCc1ccccc1)C(=O)NC1CCCCC1`, “minimum cytotoxic concentration” read 100 µM (HEL; microscopic cell morphology).
The CC50 of `CC(=N)NCCCC[C@H](N)C(=O)O` is reported as over 50 µM (BV-2; cell viability, resazurin).
The TD50 of `CCCCCCCCCCCCCNCC(=O)N(CC(=O)N(CCCCN)CC(=O)N(CCN)CC(=O)N(CC(N)=O)Cc1ccco1)Cc1ccco1` is reported as 143 ± 94 µg/mL (HepG2; cytotoxicity, MTT; 72 h).
For `O=C(Nc1nc2ccccc2[nH]1)c1cccc(C(F)(F)F)c1`, “highest non-cytotoxic concentration” read 200 µM (BV-2; 24 h).

Repeated from above:
For `CONC(=N)c1ccc(-c2ccc(-c3ccc(C(=N)NOC)cn3)o2)cc1`, the viability was 44% (KLE; 50 µM, 72 h, 10% FBS, together with: α-naphthoflavone (CYP1B1 inhibitor) 10 µM; relative to: vehicle).
For `COC(=O)c1[nH]cc2c1[C@@]1(CN(C)c3ccccc31)c1[nH]c3ccc(Cl)cc3c1-2` (racemic), the CC50 was over 50 µM (HepG2; cytotoxicity).
With `CC/C(=C(\c1ccccc1)c1ccc(OCCN(C)C)cc1)c1ccccc1` the EC50 was over 316 µM (SK-BR-3; necrosis; 24 h).
`CCCCOc1c2cc(C(=O)Nc3cc(C(=O)O)cc(C(=O)O)c3)cc1Cc1cc(C(=O)Nc3cc(C(=O)O)cc(C(=O)O)c3)cc(c1OCCCC)Cc1cc(C(=O)Nc3cc(C(=O)O)cc(C(=O)O)c3)cc(c1OCCCC)Cc1cc(C(=O)Nc3cc(C(=O)O)cc(C(=O)O)c3)cc(c1OCCCC)C2` has an IC50 of over 50 µM (MT2; cell growth or viability).
`CCCCCCCCN(CCCCCCCC)CC(=O)N(CC(=O)N(CCCCN)CC(=O)N(CCN)CC(=O)N(CC(N)=O)C1CCCCC1)C1CCCCC1` has a TD50 of 162 ± 29 µg/mL (HepG2; cytotoxicity, MTT; 72 h).
